Assay results of several laboratories.
Parts stem from different laboratories: compare values within a part only. Several values in a cell are separate wells, animals, samples, runs or records.
Chain of UniProt P23458 (whole entry, looked up): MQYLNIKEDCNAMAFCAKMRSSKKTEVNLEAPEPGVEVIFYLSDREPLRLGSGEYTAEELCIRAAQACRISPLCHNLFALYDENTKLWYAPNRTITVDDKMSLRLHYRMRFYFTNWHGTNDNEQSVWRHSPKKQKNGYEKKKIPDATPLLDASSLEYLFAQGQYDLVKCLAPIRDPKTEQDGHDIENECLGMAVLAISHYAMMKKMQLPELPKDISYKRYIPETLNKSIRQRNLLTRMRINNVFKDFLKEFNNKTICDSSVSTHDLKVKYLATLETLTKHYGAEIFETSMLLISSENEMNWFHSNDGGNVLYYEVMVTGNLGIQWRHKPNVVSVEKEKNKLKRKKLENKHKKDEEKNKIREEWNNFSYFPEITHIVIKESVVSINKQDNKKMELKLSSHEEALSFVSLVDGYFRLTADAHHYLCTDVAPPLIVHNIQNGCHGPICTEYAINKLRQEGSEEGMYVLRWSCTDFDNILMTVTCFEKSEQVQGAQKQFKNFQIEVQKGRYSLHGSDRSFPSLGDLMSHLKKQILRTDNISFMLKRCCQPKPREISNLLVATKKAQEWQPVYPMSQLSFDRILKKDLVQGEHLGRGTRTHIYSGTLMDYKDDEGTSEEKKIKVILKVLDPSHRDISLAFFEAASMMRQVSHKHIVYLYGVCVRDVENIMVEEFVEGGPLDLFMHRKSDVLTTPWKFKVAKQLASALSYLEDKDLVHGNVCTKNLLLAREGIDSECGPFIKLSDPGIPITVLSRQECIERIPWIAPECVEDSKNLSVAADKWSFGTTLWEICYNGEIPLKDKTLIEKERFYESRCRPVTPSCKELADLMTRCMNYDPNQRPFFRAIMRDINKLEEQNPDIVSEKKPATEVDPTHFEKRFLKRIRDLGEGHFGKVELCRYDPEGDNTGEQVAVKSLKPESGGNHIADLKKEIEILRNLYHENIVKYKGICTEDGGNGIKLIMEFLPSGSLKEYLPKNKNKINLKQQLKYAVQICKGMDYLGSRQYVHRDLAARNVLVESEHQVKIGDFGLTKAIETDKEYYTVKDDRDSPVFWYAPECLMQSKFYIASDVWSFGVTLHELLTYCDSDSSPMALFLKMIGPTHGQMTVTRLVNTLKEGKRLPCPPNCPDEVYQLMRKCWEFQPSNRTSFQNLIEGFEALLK
Chain of UniProt P49674 (whole entry, looked up): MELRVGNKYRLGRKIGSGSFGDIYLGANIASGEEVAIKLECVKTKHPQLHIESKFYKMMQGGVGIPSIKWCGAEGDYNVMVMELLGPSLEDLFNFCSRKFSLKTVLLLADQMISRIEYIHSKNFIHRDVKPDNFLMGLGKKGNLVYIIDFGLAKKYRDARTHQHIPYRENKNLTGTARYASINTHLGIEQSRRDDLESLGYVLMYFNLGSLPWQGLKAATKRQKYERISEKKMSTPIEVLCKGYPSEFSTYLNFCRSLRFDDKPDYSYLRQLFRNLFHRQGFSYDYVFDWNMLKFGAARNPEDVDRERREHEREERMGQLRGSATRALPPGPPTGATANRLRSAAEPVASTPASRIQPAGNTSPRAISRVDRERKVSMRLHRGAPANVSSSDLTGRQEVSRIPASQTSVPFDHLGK
Chain of UniProt P42338 (whole entry, looked up): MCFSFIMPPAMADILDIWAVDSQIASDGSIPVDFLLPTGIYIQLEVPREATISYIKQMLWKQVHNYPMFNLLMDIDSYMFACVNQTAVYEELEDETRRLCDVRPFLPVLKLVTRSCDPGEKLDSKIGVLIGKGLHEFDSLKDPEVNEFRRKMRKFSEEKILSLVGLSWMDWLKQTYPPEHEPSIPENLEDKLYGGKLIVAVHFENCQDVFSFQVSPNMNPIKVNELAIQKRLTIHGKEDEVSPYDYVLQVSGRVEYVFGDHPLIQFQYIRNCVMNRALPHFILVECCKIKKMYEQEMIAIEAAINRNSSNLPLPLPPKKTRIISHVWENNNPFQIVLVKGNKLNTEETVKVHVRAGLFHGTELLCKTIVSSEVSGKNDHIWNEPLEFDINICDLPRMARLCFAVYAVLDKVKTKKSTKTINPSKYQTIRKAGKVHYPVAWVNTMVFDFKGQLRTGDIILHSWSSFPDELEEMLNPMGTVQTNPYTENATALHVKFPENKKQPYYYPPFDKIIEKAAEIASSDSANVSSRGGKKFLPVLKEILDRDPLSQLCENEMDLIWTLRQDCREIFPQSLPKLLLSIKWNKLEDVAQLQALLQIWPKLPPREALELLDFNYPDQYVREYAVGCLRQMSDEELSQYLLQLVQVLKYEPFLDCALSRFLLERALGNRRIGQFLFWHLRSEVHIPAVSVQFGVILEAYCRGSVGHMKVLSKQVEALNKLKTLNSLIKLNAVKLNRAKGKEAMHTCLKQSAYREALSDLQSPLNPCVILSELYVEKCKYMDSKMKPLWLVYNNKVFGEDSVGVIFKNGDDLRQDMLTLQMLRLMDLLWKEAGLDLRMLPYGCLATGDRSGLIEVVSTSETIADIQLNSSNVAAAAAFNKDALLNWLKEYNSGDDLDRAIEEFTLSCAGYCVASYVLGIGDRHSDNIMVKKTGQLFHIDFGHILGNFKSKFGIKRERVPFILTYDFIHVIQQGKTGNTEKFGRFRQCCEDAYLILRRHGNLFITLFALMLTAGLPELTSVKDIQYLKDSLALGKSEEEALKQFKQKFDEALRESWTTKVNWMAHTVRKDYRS
Chain of UniProt Q13555 (whole entry, looked up): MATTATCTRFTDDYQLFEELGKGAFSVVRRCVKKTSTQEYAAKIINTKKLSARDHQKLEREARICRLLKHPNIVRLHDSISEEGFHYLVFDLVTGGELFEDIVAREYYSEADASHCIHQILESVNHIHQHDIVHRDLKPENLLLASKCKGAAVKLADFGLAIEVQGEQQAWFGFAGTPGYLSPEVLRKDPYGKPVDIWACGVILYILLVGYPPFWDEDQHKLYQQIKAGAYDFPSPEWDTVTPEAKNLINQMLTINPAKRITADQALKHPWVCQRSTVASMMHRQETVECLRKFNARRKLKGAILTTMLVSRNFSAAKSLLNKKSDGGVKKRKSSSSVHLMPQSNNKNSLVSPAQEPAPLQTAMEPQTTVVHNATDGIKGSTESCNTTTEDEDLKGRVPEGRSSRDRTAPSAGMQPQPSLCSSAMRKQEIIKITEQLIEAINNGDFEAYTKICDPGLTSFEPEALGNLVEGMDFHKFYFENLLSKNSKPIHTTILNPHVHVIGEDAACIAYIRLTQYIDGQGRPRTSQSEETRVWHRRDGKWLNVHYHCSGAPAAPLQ
Chain of UniProt O15146 (whole entry, looked up): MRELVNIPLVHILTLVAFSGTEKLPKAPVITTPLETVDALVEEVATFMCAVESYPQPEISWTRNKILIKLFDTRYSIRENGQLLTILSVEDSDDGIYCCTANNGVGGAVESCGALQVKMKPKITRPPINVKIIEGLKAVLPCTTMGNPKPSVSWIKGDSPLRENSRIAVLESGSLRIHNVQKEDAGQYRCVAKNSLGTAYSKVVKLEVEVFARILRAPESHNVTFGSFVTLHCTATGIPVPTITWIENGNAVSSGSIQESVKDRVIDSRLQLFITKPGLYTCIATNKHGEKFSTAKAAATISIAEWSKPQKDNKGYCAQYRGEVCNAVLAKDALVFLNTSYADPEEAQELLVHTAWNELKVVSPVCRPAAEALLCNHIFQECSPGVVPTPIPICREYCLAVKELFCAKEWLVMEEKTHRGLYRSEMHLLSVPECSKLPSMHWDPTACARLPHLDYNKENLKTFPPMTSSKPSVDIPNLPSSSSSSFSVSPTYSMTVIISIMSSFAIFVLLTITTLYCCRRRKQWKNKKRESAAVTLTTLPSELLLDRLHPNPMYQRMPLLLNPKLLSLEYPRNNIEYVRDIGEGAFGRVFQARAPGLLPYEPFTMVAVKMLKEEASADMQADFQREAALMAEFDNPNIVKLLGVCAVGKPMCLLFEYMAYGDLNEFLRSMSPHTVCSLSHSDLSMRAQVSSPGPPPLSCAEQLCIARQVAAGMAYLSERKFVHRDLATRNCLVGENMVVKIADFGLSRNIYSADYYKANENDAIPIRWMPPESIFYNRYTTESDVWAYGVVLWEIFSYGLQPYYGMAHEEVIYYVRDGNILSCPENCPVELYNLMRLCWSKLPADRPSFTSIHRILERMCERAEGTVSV
Chain of UniProt P42680 (whole entry, looked up): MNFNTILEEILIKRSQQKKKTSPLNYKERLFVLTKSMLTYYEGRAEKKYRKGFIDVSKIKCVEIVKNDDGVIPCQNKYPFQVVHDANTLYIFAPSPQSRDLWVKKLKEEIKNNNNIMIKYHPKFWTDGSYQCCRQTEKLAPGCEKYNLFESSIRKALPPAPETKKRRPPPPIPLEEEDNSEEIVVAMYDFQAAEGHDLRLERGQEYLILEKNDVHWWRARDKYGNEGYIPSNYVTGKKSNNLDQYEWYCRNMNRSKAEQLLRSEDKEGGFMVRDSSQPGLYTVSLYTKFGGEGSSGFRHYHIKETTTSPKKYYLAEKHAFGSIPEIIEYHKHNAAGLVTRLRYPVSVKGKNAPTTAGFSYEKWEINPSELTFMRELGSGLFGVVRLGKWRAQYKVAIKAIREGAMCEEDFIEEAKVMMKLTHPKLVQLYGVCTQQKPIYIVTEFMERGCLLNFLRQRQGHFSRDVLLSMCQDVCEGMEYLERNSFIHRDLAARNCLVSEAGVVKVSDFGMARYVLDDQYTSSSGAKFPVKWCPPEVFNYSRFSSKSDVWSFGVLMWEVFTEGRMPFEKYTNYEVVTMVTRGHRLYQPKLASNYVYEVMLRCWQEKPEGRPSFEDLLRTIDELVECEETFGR
Chain of UniProt Q9HBY8 (whole entry, looked up): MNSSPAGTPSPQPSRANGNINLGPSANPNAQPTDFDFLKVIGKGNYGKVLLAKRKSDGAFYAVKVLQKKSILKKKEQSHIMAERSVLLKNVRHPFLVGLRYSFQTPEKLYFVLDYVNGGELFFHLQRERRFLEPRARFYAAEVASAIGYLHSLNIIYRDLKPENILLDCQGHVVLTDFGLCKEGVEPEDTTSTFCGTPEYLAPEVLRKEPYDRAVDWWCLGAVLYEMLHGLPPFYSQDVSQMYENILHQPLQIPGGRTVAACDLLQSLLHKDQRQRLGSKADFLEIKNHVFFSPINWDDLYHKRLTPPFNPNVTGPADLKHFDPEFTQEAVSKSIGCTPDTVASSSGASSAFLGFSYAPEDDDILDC

Series 1
Cell line: mouse MPNST tumor cells
Technique: high-content nuclear imaging
Measured: cell number
Tested at: 10 µM
Time: 12 h
Notes: mean of 2 replicates
Reference: plate mean
Direction: higher = more cells
SMILES | nuclei count
Clc1ccc(CCC(Cn2ccnc2)Sc2c(Cl)cccc2Cl)cc1 (stereo not shown) | -0.227 z-score
CN(C)CCN1C(=O)c2ccccc2N(C)c2ccccc21 | 1.2 z-score
COc1ccc(-c2nc(-c3ccc(-c4cccc(Cl)c4)o3)[nH]c2-c2ccc(OC)cc2)cc1 | 6.26 z-score
CN1CCCC1CCn1cc(C2=C(c3c[nH]c4ccccc34)C(=O)NC2=O)c2ccccc21 (stereo not shown) | 2.85 z-score
O=C(NCC(O)CO)c1c(I)c(C(=O)NCC(O)CO)c(I)c(N(CCO)C(=O)CO)c1I (stereo not shown) | 0.867 z-score
O=C(NCCNCC(O)COc1ccc(O)cc1)N1CCOCC1 (stereo not shown) | 1.44 z-score and 1.51 z-score
CSc1ccc2c(c1)C(N1CCN(C)CC1)Cc1ccccc1S2 (stereo not shown) | -5.74 z-score
CCC1=C(C)CN(C(=O)NCCc2ccc(S(=O)(=O)NC(=O)N[C@H]3CC[C@H](C)CC3)cc2)C1=O | 2.24 z-score

Series 2
SMILES: CNCc1ccccc1-c1csc([C@@H](C)Nc2nc(C)nc3cc(OC)c(OC)cc23)c1
Effect on: cell-free assay
Technique: competition with immobilised ligand
Tested at: 1 µM
target | remaining binding
CLK3 (Homo sapiens, UniProt P49761) | 100%
CAMK2G (Homo sapiens, UniProt Q13555) | 100%
CAMK2D (Homo sapiens, UniProt Q13557) | 99%
PRKAA2 (Homo sapiens, UniProt P54646) | 97%
MAP2K2 (Homo sapiens, UniProt P36507) | 82%
PIK3CB (Homo sapiens, UniProt P42338) | 96%
ERBB3 (Homo sapiens, UniProt P21860) | 76%
PIK3C2B (Homo sapiens, UniProt O00750) | 86%
Tyrosine-protein kinase JAK1, JH2 (JAK1, Homo sapiens, UniProt P23458) | 73%
SRPK3 (Homo sapiens, UniProt Q9UPE1) | 84%
TESK1 (Homo sapiens, UniProt Q15569) | 83%
BRAF (Homo sapiens, UniProt P15056) | 100%
MAP2K1 (Homo sapiens, UniProt Q02750) | 86%
PRKG1 (Homo sapiens, UniProt Q13976) | 100%

Series 3
SMILES: COc1ccc2c(c1)c(C1=C(c3c[nH]c4ccccc34)C(=O)NC1=O)cn2CCCN(C)C
Effect on: enzyme activity
Mode: inhibitor
Tested at: 0.5 µM
Reference: control
target | remaining activity
IGF1R (Homo sapiens, UniProt P08069) | 115%
JAK1 (Homo sapiens, UniProt P23458) | 100%
CSNK1E (Homo sapiens, UniProt P49674) | 86.4%
CAMKK1 (Homo sapiens, UniProt Q8N5S9) | 94.8%
SIK2 (Homo sapiens, UniProt Q9H0K1) | 103%
MUSK (Homo sapiens, UniProt O15146) | 53.5%
TEC (Homo sapiens, UniProt P42680) | 97.9%
SGK2 (Homo sapiens, UniProt Q9HBY8) | 92.6%
RPS6KA3 (Homo sapiens, UniProt P51812) | 6.55%
CAMK1 (Homo sapiens, UniProt Q14012) | 90.2%
EPHA2 (Homo sapiens, UniProt P29317) | 91.3%
PAK1 (Homo sapiens, UniProt Q13153) | 87.4%

Series 4
Target: GTPase KRas (KRAS, Homo sapiens, UniProt P01116, Q61L)
Effect on: target engagement in cells
Technique: BRET
SMILES | IC50 [µM]
CN1CCC[C@H]1COc1nc2c(c(N3CCN(S(C)(=O)=O)[C@@H](CC#N)C3)n1)CCN(c1cccc3cccc(Cl)c13)C2 | 0.69
CC(=O)N1CCN(c2nc(OC[C@@H]3CCCN3C)nc3c2CCN(c2cccc4cccc(Cl)c24)C3)C[C@@H]1CC#N | 1.2
CCC(=O)N1CCN(c2nc(OC[C@@H]3CCCN3C)nc3c2CCN(c2cccc4cccc(Cl)c24)C3)C[C@@H]1CC#N | 1.7

For quick reference, copied from above (series 1):
SMILES | nuclei count
CN(C)CCN1C(=O)c2ccccc2N(C)c2ccccc21 | 1.2 z-score
O=C(NCCNCC(O)COc1ccc(O)cc1)N1CCOCC1 (stereo not shown) | 1.44 z-score and 1.51 z-score
CN1CCCC1CCn1cc(C2=C(c3c[nH]c4ccccc34)C(=O)NC2=O)c2ccccc21 (stereo not shown) | 2.85 z-score
CCC1=C(C)CN(C(=O)NCCc2ccc(S(=O)(=O)NC(=O)N[C@H]3CC[C@H](C)CC3)cc2)C1=O | 2.24 z-score
CSc1ccc2c(c1)C(N1CCN(C)CC1)Cc1ccccc1S2 (stereo not shown) | -5.74 z-score
Clc1ccc(CCC(Cn2ccnc2)Sc2c(Cl)cccc2Cl)cc1 (stereo not shown) | -0.227 z-score
